# Measurements from different studies.
# A part holds a random share of what one study measured. Changes are numbered by the printed parent chain.

# Block 1
# Target: Myc proto-oncogene protein, bHLH-zipper, MAX partner unstated (MYC, Homo sapiens, UniProt P01106, residues 368-449)
# Chain of UniProt P01106 (368-449, looked up): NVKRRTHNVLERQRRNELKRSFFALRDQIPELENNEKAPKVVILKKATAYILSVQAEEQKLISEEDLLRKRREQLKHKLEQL
# Technique: protein-binding microarray
# Molecule type: double-stranded DNA, one strand shown
# Medium: in vitro
# Tested at: not given
# Setting: k-mer, scored over probes, only values ≥0.25
# Reading: higher = stronger binding
Sequence,E-score
AGGCGGGG,0.363
AACAGGTG,0.346
CATGGAAA,0.257
GCGTGTAA,0.316
AACCATGC,0.413
GCGTGGTA,0.436
GCATGTAC,0.387
GGCACACC,0.254
GATCACGC,0.348
AATGTGCG,0.353
CACGCGGC,0.478
GCACGAGA,0.331
CCCGCCGC,0.306
GGGTGGTA,0.25
GTGAGCAC,0.258
CGCACACC,0.306
CACCTGCG,0.362
CAGACATG,0.283
CATTGCAC,0.25
ACATTGTG,0.297

# Block 2
# Target: ABI1, truncated, D143A, DHFR fusion (Arabidopsis thaliana)
# Technique: DHFR PCA, deep sequencing
# Medium: yeast
# Setting: methotrexate growth selection, single substitutions
# Together with: (+)-ABA 200 µM
# Reference: wild-type fitted maximum
# Reading: higher = stronger binding
# Parent: PYL1, truncated, DHFR fusion (Arabidopsis thaliana); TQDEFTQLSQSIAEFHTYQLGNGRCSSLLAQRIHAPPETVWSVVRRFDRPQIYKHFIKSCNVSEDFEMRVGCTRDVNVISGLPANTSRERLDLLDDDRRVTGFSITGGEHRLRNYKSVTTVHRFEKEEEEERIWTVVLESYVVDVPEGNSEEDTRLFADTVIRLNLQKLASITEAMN; partner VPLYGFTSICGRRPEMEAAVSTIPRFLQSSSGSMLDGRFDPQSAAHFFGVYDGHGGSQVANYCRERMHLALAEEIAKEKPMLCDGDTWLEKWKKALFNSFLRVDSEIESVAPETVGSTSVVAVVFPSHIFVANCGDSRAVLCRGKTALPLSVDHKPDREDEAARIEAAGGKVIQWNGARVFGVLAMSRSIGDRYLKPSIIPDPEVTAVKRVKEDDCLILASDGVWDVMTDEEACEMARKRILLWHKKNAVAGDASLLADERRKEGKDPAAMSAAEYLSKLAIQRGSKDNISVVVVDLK
Variant,relative binding score [%]
T1F,99.8
I105L,34.6
D153V,9.48
L82T,52
G107L,30.9
G102M,74.7
R123W,81.3
F15T,62.6
V78W,39.5
F15Y,100
S80L,15.4
G108P,19.1
V161N,4.52
S59P,1.29
R111E,34.7
R24F,80.4
D75A,100
H122N,68.4
D92H,54.7

# Block 3
# Target: ATF2, bZIP domain (human)
# Technique: DHFR protein complementation
# Medium: yeast
# Setting: single substitutions, most at no-binding floor
# Reference: wild-type JUN-FOS pair
# Reading: higher = stronger binding
# Parent: JUN, bZIP domain (human); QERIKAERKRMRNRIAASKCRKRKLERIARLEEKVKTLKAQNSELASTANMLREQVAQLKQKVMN; partner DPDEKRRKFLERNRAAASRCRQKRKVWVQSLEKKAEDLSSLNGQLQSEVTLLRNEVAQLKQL
Variant,binding fitness
A49N,-1.45 natural log
E33V,-1.48 natural log
L59R,-1.4 natural log
E33Q,-1.47 natural log
M51P,-1.51 natural log
N42Q,-1.34 natural log
E44N,-1.47 natural log
E32G,-1.43 natural log
E44T,-1.5 natural log
A57P,-1.49 natural log
E33D,-1.31 natural log
R53P,-1.51 natural log
A49K,-1.47 natural log
L38M,-1.37 natural log
E54R,-1.43 natural log
K36D,-1.45 natural log
N42F,-1.47 natural log
E32C,-1.16 natural log
Q55V,-1.45 natural log
R30I,-1.4 natural log
A57G,-1.39 natural log

# Block 4
# Substance: PhoQ, residues 284 288 289 292 302 303 TASMAF
# Technique: Sort-seq
# Refers to: YFP reporter
# Medium: E. coli
# Setting: PhoQ-PhoP variant library
# Together with: 10 µM Mg2+
# Reference: high Mg2+ state
# Reading: higher = stronger signaling
target,fold induction
"PhoP, residues 12 14 15 18 19 VGHWL (Escherichia coli, UniProt P23836)",11.5
"PhoP, residues 12 14 15 18 19 LHHYF (Escherichia coli, UniProt P23836)",22.9
"PhoP, residues 12 14 15 18 19 NFFVT (Escherichia coli, UniProt P23836)",14.5
"PhoP, residues 12 14 15 18 19 TPWTL (Escherichia coli, UniProt P23836)",10.5

# Block 5
# Target: CCNF, cyclin fold, Cln2 fusion (human)
# Technique: yeast growth competition, sequencing
# Medium: yeast
# Setting: weak parent motif
# Reference: not given
# Reading: higher = stronger binding
# Parent: PKN2 docking peptide (human); VSAVQKLDFSDTM
Variant,normalised enrichment score
S2E,-0.738
M13T,0.875
V1L,1.23
K6C,0.42
V4Q,1.09
V4W,-0.383
T12E,1.12
T12Q,0.575
S2K,0.514
D11K,0.702
V4Y,0.0256
V1F,1.66
D11A,0.701
K6R,1.14
K6M,-0.272
K6D,-0.426
K6S,0.581
L7Y,-0.357
V1I,0.929
V1M,1.22
F9H,-1.07
S2M,0.17
D11T,0.795
A3W,0.251
A3L,0.493

# Block 6
# Target: Interferon regulatory factor 5, full length, phosphomimetic (IRF5, Homo sapiens, UniProt Q13568-2, residues 1-514, S451D/S453D/S456D/S462D)
# Technique: protein-binding microarray
# Molecule type: double-stranded DNA, one strand shown
# Medium: in vitro
# Tested at: 940 nM top
# Setting: 60-bp whole probe
# Together with: salmon DNA 0.4 mg/ml
# Reference: random background probes
# Reading: higher = stronger binding
# All sequences stand within: GCCTAGCAC … GTCTTGATTCGCTTGACGCTGCTG
Sequence,fitted relative affinity [z-score]
TCACATCTGATTTCTCAAACTGTGCTA,0.482
TCAGTTATTAAATTTTCAACTGTGCTA,0.325
GACGGTTTCGGTTCTGGGACGTGCTAG,13.3
TTAGGTTTCGGGACTGTGTTAGTGCTA,7.73
TGAAGTTTTAATAACACAGAGTGCTAG,-0.514
GACGGTTTCCTTTACCTGACGTGCTAG,1.61
ATAGGTTTCCTTTTCCTTTAGTGCTAG,1.98
TTAGATCTAAGTTTCGATTAGTGCTAG,6.72
GAAGATATCGGGACTGGAGACGTGCTA,-0.378
GGCGGTATCCTTTTCCTGACGTGCTAG,0.794
TTAGAACTGGGGTTTCGAGTAGTGCTA,2.19
TTAGGTTCAGGTTTCGGTTAGTGCTAG,7.6
GACGGACTGGGGACGGGGGACGTGCTA,1.2
GACGGTTTCGGTTTCAGGACGTGCTAG,13.6
GACGGTATCGACTTTCGCGACGTGCTA,4.26
GACGATCTCAGTATCGAGAAGTGCTAG,1.78
TTAGGTTTCCTTATGCTTTAGTGCTAG,1.59
GACGGTATCGACACTAGGGACGTGCTA,3.62
GACGATATCAGTCTGGAGACGTGCTAG,-0.367

# Block 7
# Target: Histone acetyltransferase KAT6A, both winged helices, GST fusion (KAT6A, Homo sapiens, UniProt Q92794, residues 1-181)
# Technique: protein binding microarray
# Molecule type: double-stranded DNA, one strand shown
# Medium: in vitro
# Tested at: not given
# Setting: 8-mer, flanks averaged, mean of 2 arrays, mostly near background
# Reference: not given
# Reading: higher = stronger binding
# Construct (chain): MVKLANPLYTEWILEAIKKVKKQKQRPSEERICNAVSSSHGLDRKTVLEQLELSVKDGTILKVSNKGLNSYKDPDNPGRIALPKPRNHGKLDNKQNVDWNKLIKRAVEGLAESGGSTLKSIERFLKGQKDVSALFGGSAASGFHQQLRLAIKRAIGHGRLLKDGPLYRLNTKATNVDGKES
Sequence,E-score
CGGGTTTC,0.284
CAAAGCAC,-0.108
CTGACGTC,-0.0451
ATATGCAG,-0.141
CCAGTACC,-0.0869
TCTACCAA,-0.142
CACTATTC,0.011
GATCTGCA,-0.107
GTCTAGCA,-0.119
CCCCCCGG,0.157
CGCCCTAC,0.0636
GAAAGCTA,-0.182
AAATCCCA,-0.0855
CGCCGTTC,0.288
TAAGAACA,0.0285
TCTCCCAA,-0.114
CCGAGTCG,0.0661
AATTCTCT,-0.00243
AACTATGG,-0.139
AATTAACG,0.0902

# Some of these lines once more (block 3):
Variant,binding fitness
A49K,-1.47 natural log
L38M,-1.37 natural log
E54R,-1.43 natural log
K36D,-1.45 natural log
N42F,-1.47 natural log
E32C,-1.16 natural log
Q55V,-1.45 natural log
R30I,-1.4 natural log
A57G,-1.39 natural log
